Assay results from different studies.
Parts stem from different laboratories: compare values within a part only. Several values in a cell are separate wells, animals, samples, runs or records.
Sequence of UniProt Q15375 (whole entry, looked up): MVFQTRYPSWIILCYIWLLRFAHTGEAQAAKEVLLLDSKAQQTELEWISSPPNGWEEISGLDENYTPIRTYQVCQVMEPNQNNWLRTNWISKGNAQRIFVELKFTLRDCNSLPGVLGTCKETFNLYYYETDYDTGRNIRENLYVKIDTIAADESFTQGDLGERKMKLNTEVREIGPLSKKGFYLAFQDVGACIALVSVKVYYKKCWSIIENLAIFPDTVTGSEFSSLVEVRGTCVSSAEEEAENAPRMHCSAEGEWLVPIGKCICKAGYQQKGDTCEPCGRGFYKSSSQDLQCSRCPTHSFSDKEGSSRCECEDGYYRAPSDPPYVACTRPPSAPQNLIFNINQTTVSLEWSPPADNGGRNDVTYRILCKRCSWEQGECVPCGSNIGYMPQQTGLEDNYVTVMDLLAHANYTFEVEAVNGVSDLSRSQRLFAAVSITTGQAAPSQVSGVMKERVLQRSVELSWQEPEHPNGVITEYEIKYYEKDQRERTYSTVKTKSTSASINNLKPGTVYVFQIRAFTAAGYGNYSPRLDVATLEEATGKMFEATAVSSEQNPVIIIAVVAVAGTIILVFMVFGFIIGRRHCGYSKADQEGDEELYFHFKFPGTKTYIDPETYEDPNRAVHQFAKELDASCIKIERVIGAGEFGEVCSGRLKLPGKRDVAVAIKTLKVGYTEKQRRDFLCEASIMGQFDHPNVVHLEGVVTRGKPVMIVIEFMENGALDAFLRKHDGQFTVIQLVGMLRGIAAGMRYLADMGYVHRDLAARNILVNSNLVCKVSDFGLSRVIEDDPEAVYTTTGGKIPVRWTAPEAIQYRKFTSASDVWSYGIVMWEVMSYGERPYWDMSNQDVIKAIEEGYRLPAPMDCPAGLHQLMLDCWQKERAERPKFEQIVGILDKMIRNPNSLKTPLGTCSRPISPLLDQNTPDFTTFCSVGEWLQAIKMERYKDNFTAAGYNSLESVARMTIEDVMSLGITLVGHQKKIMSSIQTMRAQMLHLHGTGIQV
Sequence of UniProt P42338 (whole entry, looked up): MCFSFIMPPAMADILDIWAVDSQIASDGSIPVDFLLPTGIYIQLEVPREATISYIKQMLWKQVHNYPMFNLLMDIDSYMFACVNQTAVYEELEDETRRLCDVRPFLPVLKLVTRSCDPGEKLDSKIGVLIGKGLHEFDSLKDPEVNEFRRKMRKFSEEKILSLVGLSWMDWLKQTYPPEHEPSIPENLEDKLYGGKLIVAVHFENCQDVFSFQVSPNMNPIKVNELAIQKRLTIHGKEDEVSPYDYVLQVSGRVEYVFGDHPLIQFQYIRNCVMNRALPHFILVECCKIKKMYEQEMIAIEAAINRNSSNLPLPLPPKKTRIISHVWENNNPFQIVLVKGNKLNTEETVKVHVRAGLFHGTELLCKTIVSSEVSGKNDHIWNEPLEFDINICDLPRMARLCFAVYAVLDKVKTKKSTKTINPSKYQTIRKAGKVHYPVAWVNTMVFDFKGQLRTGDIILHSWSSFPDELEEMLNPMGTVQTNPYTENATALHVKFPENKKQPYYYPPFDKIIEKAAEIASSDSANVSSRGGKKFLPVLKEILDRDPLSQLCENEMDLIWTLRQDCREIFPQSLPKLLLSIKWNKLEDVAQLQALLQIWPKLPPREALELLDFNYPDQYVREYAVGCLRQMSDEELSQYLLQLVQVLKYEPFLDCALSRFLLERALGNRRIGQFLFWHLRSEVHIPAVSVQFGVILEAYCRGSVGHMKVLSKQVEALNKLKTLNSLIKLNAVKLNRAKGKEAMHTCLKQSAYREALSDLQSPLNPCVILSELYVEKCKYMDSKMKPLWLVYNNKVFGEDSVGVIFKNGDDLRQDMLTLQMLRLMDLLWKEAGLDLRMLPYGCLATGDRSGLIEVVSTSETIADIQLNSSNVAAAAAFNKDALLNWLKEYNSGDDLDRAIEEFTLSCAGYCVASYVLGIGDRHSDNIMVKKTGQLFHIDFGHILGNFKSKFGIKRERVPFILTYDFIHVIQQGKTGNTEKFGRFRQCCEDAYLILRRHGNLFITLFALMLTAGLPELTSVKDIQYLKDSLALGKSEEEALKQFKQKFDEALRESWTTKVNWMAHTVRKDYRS
Sequence of UniProt Q15746 (whole entry, looked up): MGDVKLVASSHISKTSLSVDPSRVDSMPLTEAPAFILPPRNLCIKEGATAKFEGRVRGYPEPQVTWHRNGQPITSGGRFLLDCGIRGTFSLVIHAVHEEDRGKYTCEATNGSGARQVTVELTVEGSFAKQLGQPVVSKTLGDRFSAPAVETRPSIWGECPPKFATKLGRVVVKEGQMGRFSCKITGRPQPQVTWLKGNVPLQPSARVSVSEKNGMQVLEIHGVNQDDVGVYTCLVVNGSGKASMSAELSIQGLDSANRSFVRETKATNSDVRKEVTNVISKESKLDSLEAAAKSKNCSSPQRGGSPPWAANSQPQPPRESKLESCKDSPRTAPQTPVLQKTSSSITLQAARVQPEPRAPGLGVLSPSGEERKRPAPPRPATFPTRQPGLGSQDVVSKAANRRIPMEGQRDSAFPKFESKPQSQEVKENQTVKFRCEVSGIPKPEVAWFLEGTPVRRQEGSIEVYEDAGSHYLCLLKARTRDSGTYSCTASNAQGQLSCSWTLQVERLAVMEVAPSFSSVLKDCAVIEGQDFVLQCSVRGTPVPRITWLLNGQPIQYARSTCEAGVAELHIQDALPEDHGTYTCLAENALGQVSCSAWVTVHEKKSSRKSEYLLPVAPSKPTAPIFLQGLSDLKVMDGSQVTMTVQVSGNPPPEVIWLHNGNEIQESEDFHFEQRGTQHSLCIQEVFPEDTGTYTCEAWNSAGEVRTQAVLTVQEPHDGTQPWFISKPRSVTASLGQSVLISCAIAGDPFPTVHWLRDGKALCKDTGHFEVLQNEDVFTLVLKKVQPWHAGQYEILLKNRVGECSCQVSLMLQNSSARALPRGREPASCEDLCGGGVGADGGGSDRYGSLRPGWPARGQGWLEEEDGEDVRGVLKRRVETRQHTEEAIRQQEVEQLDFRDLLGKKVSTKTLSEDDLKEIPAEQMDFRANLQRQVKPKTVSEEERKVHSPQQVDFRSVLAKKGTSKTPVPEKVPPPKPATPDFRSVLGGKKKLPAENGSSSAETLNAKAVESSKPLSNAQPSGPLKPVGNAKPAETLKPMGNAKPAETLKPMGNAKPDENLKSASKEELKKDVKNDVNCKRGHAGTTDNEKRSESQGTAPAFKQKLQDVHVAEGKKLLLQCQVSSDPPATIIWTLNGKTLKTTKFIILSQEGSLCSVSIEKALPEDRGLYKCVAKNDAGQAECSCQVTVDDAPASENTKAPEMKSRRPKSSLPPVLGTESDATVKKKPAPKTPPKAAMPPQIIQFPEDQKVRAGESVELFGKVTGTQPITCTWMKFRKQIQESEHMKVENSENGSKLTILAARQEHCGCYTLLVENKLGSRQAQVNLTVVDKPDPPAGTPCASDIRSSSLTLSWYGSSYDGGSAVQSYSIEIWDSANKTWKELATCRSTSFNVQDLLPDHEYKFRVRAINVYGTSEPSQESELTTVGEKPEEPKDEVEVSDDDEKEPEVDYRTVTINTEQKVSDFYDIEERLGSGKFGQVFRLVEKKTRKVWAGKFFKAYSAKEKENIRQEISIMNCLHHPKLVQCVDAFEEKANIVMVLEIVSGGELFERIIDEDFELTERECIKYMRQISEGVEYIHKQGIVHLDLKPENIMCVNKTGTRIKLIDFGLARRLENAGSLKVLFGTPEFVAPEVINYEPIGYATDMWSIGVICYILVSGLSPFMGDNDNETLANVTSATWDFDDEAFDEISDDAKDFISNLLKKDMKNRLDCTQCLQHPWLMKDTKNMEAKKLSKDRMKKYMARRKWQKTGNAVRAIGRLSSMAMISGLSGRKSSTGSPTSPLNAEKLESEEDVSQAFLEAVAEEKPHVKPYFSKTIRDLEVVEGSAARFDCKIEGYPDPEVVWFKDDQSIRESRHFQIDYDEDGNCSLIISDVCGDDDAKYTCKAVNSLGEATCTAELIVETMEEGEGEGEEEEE
Sequence of UniProt Q9UQB9 (whole entry, looked up): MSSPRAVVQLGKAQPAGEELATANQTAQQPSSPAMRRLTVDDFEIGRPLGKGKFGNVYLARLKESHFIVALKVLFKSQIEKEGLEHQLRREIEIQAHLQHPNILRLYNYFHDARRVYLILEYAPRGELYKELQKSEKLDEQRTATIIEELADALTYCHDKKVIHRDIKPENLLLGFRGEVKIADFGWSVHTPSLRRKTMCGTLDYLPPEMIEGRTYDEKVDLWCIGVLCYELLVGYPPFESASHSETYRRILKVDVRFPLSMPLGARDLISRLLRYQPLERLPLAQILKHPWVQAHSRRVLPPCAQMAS
Sequence of UniProt Q9P1W9 (whole entry, looked up): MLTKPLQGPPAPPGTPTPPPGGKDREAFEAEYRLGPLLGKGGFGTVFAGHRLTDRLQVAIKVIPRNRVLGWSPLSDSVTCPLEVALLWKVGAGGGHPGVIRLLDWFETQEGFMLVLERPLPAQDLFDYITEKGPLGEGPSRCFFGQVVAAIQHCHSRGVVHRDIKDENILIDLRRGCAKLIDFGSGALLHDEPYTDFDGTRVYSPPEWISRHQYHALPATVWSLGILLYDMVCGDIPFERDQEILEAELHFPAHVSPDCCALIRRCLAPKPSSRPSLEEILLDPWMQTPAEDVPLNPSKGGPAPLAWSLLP
Sequence of UniProt P41240 (whole entry, looked up): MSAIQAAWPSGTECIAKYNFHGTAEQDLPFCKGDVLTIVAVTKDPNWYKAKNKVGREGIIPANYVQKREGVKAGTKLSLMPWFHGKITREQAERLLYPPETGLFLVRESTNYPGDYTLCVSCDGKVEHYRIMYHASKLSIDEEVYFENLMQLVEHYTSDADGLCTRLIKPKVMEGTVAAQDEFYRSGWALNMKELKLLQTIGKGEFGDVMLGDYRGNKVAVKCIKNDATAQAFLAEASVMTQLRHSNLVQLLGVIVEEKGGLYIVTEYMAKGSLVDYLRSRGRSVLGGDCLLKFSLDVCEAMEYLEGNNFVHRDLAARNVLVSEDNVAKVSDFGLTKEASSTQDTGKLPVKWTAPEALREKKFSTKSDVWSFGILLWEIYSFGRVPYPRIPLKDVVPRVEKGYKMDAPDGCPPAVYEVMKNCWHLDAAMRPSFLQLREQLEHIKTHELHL

Study 1
Structure (SMILES): CCCOc1ccc([C@@H]2[C@@H](C(=O)O)[C@H](c3ccc4c(c3)OCO4)CN2CC(=O)Nc2c(CC)cccc2CC)cc1
Read-out: cell-free assay
Method: competition with immobilised ligand
Concentration: 1 µM
It gave 100% for remaining binding (NLK (Homo sapiens, UniProt Q9UBE8)).
The remaining binding was 84% (ERBB3 (Homo sapiens, UniProt P21860)).
PIK3CB (Homo sapiens, UniProt P42338) — remaining binding: 92%.
For FGFR4 (Homo sapiens, UniProt P22455): remaining binding read 93%.
SGK3 (Homo sapiens, UniProt Q96BR1) — remaining binding: 69%.

Study 2
Structure (SMILES): O=C1NC(=O)c2c1c1c3ccccc3[nH]c1n1cncc21
Read-out: enzyme activity
Mode: inhibitor
Concentration: 0.5 µM
Reference: control
It gave 15.5% for remaining activity (MYLK (Homo sapiens, UniProt Q15746)).
For FLT3 (Homo sapiens, UniProt P36888): remaining activity read 9.86%.
The remaining activity was 47.6% (Aurora kinase C (AURKC, Homo sapiens, UniProt Q9UQB9)).
The remaining activity was 34.4% (PIM2 (Homo sapiens, UniProt Q9P1W9)).
It gave 70.6% for remaining activity (RPS6KB1 (Homo sapiens, UniProt P23443)).
CSK (Homo sapiens, UniProt P41240) — remaining activity: 83.3%.
The remaining activity was 12.1% (NUAK1 (Homo sapiens, UniProt O60285)).
The remaining activity was 78.8% (EPHA7 (Homo sapiens, UniProt Q15375)).

Study 3
Host: human
Medium: microsomes or S9
Concentration: 2 µM
Time: 0.5 h
`COC(=O)[C@@H]1CCCN1C(=O)c1ccc(OC(c2ccc(Cl)cc2)c2ccc(Cl)cc2Cl)c(F)c1F` (some centres unmarked) gave a remaining compound of 66.5%.
With `Cc1cccc(CN(CCN2CCOCC2)CC(O)COc2ccc(Cl)cc2)c1` (centres unmarked) the remaining compound was 62.4%.
The remaining compound of `Cn1cc(C2c3ccccc3C(=O)N2C2CCCCC2)c2ccccc21` (centres unmarked) is reported as 33.3%.

Further values, each from its own experiment
The cell count of `CC(C)C[C@@H]1NC(=O)[C@@H](N(C)C(=O)[C@H](CC2CCC2)NC(=O)[C@@H]2C[C@@H](F)CN2C(=O)C2(C(F)(F)F)CC(F)(F)C2)CCCCNC(=O)C2(CC2)NC(=O)[C@H](Cc2cc(Cl)ccc2Cl)N(C)C1=O` is reported as 0.308 and 0.346 (NCI-H446; Vi-Cell counting; 20 nM, 3 days, without Mps1 inhibitor; reference: DMSO).

A few entries again (study 2):
For FLT3 (Homo sapiens, UniProt P36888): remaining activity read 9.86%.
The remaining activity was 47.6% (Aurora kinase C (AURKC, Homo sapiens, UniProt Q9UQB9)).
